Earlier results, collected from citations in different studies.

For `CO[C@@H](C)c1c(Nc2ccc([C@@H](N(C)C(=O)C3CCS(=O)(=O)CC3)C(F)(F)F)cc2)cnc2cc(Cl)nn12`, the IC50 was 1900 nM (MALT1 (human); cellular activity).
`CCc1ccc(CCOc2ccc(CC3SC(=O)NC3=O)cc2)nc1` (centres unmarked) has a fraction unbound of 0.01 (plasma; literature value).
`CN1CCN(C(=O)C(C)(C)c2ccc(C(=O)Nc3cn4cc(-c5ccncc5)ccc4n3)cc2)CC1` has an IC50 of 0.67 nM (CLK1 (human); enzyme activity).
With `CN(CCOc1ccc(CC2SC(=O)NC2=O)cc1)c1ccccn1` (centres unmarked) the fraction unbound was 0.002 (plasma; literature value).
`C[C@@H](NC(=O)Nc1cc2[nH]ncc2c(CO)n1)c1ccccc1` gave an IC50 of 1.8 nM (MAPK1; biochemical).
With `C[C@H]1Oc2cc(cnc2N)-c2c(nn(C)c2C#N)CN(C)C(=O)c2ccc(F)cc21` the fraction unbound was 0.34 (human plasma).
With `CCC(=O)N[C@@H]1CC[C@H](C(=O)N(C)c2ccc(-c3nc4ccccc4o3)cc2)C1` the IC50 was greater than 3000 nM (FASN; biochemical activity).
Under activity class, `Cl.O=C(O)/C=C/c1ccc(Cn2ccnc2)cc1` is recorded as “inactive” (Toxoplasma gondii; parasite growth; concentration not given, published screen).

Some of these lines once more:
For `CO[C@@H](C)c1c(Nc2ccc([C@@H](N(C)C(=O)C3CCS(=O)(=O)CC3)C(F)(F)F)cc2)cnc2cc(Cl)nn12`, the IC50 was 1900 nM (MALT1 (human); cellular activity).
